Assay results pooled from the literature.
Every numbered part comes from another study and shows a few of its results, in no order. Changes are numbered by the printed parent chain.

Series 1
Target: Runt-related transcription factor 1, full length (RUNX1, Homo sapiens, UniProt Q01196-8, residues 1-480)
Technique: protein-binding microarray
Molecule type: hairpin DNA
Sample: in vitro
Tested at: not given
Notes: whole hairpin DNA, median over replicate spots
Reference: not given
Direction: higher = stronger binding
Measurement: median fluorescence
Sequence = GAGGCCCAACCCGAACAGCCTCCTGGCTGTTCGGGTTGGGCCTCACACTC; result = 1980 a.u.
Sequence = GAGGCCCGTTGTGGTTGGCCTCCTGGCCAACCACAACGGGCCTCACACTC (5mC at 7); result = 3170 a.u.
Sequence = GAGGCCTGCTGTGGTTGGCCTCCTGGCCAACCACAGCAGGCCTCACACTC (5mC at 9); result = 2630 a.u.
Sequence = GAGGCCTGTTTCGGTTGGCCTCCTGGCCAACCGAAACAGGCCTCACACTC; result = 1800 a.u.
Sequence = CTCAGTTCTCGGGGCTGGACTCCTGTCCAGCCCCGAGAACTGAGACACTC (5mC at 34); result = 1690 a.u.
Sequence = GAGGCCTGTCGCGGTTGGCCTCCTGGCCAACCGCGACAGGCCTCACACTC; result = 2620 a.u.
Sequence = GAGGCCTGTCGCGGTTGGCCTCCTGGCCAACCGCGACAGGCCTCACACTC (5mC at 32 34); result = 1770 a.u.
Sequence = CTCAGTTCTGTGGGCCGGACTCCTGTCCGGCCCACAGAACTGAGACACTC (5mC at 16); result = 1880 a.u.
Sequence = GAGGCCTGTTGTGCTTGGCCTCCTGGCCAAGCACAACAGGCCTCACACTC; result = 1700 a.u.
Sequence = GAGGCCTGCTGCGGTTGGCCTCCTGGCCAACCGCAGCAGGCCTCACACTC (5mC at 9); result = 5220 a.u.
Sequence = GAGGCCGGTCGCGGTTGGCCTCCTGGCCAACCGCGACCGGCCTCACACTC; result = 2990 a.u.

Series 2
Target: Histone acetyltransferase KAT6A, winged helix 2, GST fusion (KAT6A, Homo sapiens, UniProt Q92794, residues 85-181)
Technique: protein binding microarray
Molecule type: double-stranded DNA, one strand shown
Sample: in vitro
Tested at: not given
Notes: 8-mer, flanks averaged, mean of 2 arrays, mostly near background
Reference: not given
Direction: higher = stronger binding
Measurement: E-score
Construct (chain): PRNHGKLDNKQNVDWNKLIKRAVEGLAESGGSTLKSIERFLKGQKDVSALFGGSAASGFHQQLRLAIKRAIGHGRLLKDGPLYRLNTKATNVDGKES
Sequence = CCTAGGTC; result = 0.00253
Sequence = TCCAATCA; result = 0.0622
Sequence = GCTCCGAC; result = -0.0152
Sequence = AGGAACGA; result = -0.0982
Sequence = CCTTCTAC; result = -0.0722
Sequence = ATGTGCCG; result = -0.0285
Sequence = GTACCCAA; result = 0.0455
Sequence = AATATACC; result = -0.203
Sequence = ATACGGGC; result = -0.159
Sequence = CCGTCGAA; result = 0.0327
Sequence = CCCCCGCC; result = 0.0917
Sequence = ACTGGGAA; result = 0.0971
Sequence = TAACAACA; result = 0.0424
Sequence = AGTGCGAA; result = -0.168
Sequence = ACGCTTAT; result = -0.154
Sequence = AAGGGGTG; result = -0.119
Sequence = CGGAATGC; result = 0.0637
Sequence = GCTAAAAC; result = -0.138
Sequence = ATCATGGC; result = -0.0436
Sequence = TAAATCAA; result = 0.0758
Sequence = CCTGGTGA; result = 0.103
Sequence = GCAACAAC; result = 0.101
Sequence = AATGGGGA; result = -0.15
Sequence = GCGGACTA; result = -0.0228
Sequence = GGCAAGCC; result = 0.0112

Series 3
Target: Prothrombin, mature alpha-thrombin (F2, Homo sapiens, UniProt P00734)
Technique: aptamer microarray, sandwich
Molecule type: DNA with 2'F-ANA
Sample: in vitro
Tested at: 200 nM
Notes: whole 15-mer aptamer, many near background
With: Cy3 exosite-II aptamer, 400 nM
Direction: higher = stronger binding
Measurement: mean fluorescence intensity
Sequence: GGTTGGTGTGGTTGG
Modification = 2'F-ANA at 1 2 3 4 5 6 7 9 11 12 15; result = 80.6 a.u.
Modification = 2'F-ANA at 6 7 8 9 15; result = 523 a.u.
Modification = 2'F-ANA at 2 3 4 7 8 11 14; result = 338 a.u.
Modification = 2'F-ANA at 2 3 4 5 6 7 8 9 10 12 13; result = 124 a.u.
Modification = 2'F-ANA at 2 6 8 9 10 11 12 13 14 15; result = 116 a.u.
Modification = 2'F-ANA at 1 2 5 6 8 9 10 14 15; result = 50.1 a.u.
Modification = 2'F-ANA at 2 4 5 6 9; result = 89.2 a.u.
Modification = 2'F-ANA at 1 2 5 9 10 11 12 13 14 15; result = 45.8 a.u.
Modification = 2'F-ANA at 2 3 5 6 7 8 10 13 14 15; result = 88.6 a.u.
Modification = 2'F-ANA at 3 4 5 7 8 9 10 11 13; result = 56.3 a.u.
Modification = 2'F-ANA at 2 4 5 7 9 11 12 13; result = 75.4 a.u.
Modification = 2'F-ANA at 1 5 6 8 9 10 11; result = 45.7 a.u.
Modification = 2'F-ANA at 1 4 6 7 10 12 15; result = 55.7 a.u.
Modification = 2'F-ANA at 3 5 7 8 10 12; result = 86 a.u.
Modification = 2'F-ANA at 2 3 4 5 6 7 10 11; result = 55 a.u.
Modification = 2'F-ANA at 4 5 8 10 11 14; result = 43.5 a.u.
Modification = 2'F-ANA at 1 2 8 9; result = 219 a.u.
Modification = 2'F-ANA at 1 3 4 5 6 7 10 11 12 13 15; result = 62.9 a.u.
Modification = 2'F-ANA at 1 2 4 9 10 11 13 15; result = 115 a.u.
Modification = 2'F-ANA at 1 3 4 9 11 12 14 15; result = 71.8 a.u.
Modification = 2'F-ANA at 1 6 8 9 10 12 13; result = 80.2 a.u.
Modification = 2'F-ANA at 4 5 6 7 8 10 12 13 14 15; result = 45.2 a.u.
Modification = 2'F-ANA at 5 7 8 9 10; result = 51 a.u.
Modification = 2'F-ANA at 2 3 7 8 9 10 14 15; result = 304 a.u.
Modification = 2'F-ANA at 1 3 4 8 9 11 12 15; result = 355 a.u.

Series 4
Target: Sal-like protein 4, full length isoform B (SALL4, Homo sapiens, UniProt Q9UJQ4-2, residues 1-616)
Technique: universal PBM
Molecule type: double-stranded DNA, one strand shown
Sample: in vitro
Tested at: not given
Notes: 8-mer, flanks averaged, mean of replicates
Direction: higher = stronger binding
Measurement: E-score
Sequence = CCGATCGG; result = -0.228
Sequence = CACCAAGC; result = -0.145
Sequence = AAATTGGT; result = 0.123
Sequence = AAGCGATT; result = 0.119
Sequence = CCTGCAGG; result = -0.286
Sequence = TCTTTTAA; result = 0.21
Sequence = CAGTAACA; result = 0.141
Sequence = ATGCAAAA; result = 0.293
Sequence = CTGTCAAA; result = 0.0059
Sequence = ATACTGAT; result = 0.259
Sequence = CCTCTCAC; result = 0.0112
Sequence = ACATGACT; result = -0.11
Sequence = ACGTCCCA; result = -0.0342
Sequence = AGGGCGTG; result = -0.265
Sequence = ACAACATA; result = 0.298
Sequence = ACTCAGCA; result = -0.106

Series 5
Target: RNA binding protein fox-1 homolog 2, RRM domain, GST-SBP tag (RBFOX2, Homo sapiens, UniProt O43251-10, residues 100-194)
Technique: RNA Bind-n-Seq
Molecule type: RNA
Sample: in vitro
Tested at: 365 nM
Notes: natural RNA segment, single round, ends assumed
Reference: no-protein control
Direction: higher = stronger binding
Measurement: RBNS enrichment (R)
Constant ends, left off below: GGGAGUUCUACAGUCCGACGAUC … UGGAAUUCUCGGGUGCCAA
Sequence = CCUUUUAUACCUACGAUUUCAUGUCACAUUUACUAAUAGAAUUAAGGGAAAUAGAAGCCCGUUCUUUCUUACUGCCCCUGGAGGGAGCAUGGCGCUAGGGCUCUCAGCCU; result = 0.771
Sequence = GCCCCCAAAGCACAGAAUGGAUUCAAUUUGUGGCCUGGGUUCAGCUCUGCCUCUGCAGUUGGCAGGUGUCCCAGAUUUGCUGUUGGACAGGGACCUUCUGCACUCCAUCC; result = 0.418
Sequence = UACUACUAUUACCAAGUCGGCCGGAAACCCAAAAAAGUUAGCAGGCUGGGACCUGCCUGGGCCUGGACCUGGGCCCGAGCAGCUGGGGACUUCACUGUCCAUGGGUCCUA; result = 0.464
Sequence = UUAAUAUUUCCUCCUGUGUCCUCUGAAUGUCUGGGCGAGCUUUUGGUGAGAGGGCUGGUAUGUCAUGUUGUUAUGAUACAGUCGAAAUUUGUCAAUGCAGUGUGAAUGUU; result = 1.62
Sequence = GAAAAUAUUCAUGCUUGCCAUCUGUUCAUUUCUAAAUUUAUAUUCAUAAAGUUACAGUUUGAUACAGGAAUUAUUAGGAGUAAUUCUUUUCUGUUUCUGUUUAUAAUGAA; result = 1.09
Sequence = CAUCCGUAAUGAGAUCUGAUGCCCUCUUCUGGUGUGUCUGAAGAGAGCUACAGUGUACUCAUAUAAAUAAAAUAAUAAAUCUUUAAAAAAAAAUUCCUUUAACCCAAUUG; result = 1.34
Sequence = AAAUUACUCAGUAUCCAUGUCACCACCAAGUUGUUGUUUUCAAGCCAGUAUAUUUUUUCAUAACUCCAGUGCUCAGACCUAGAGUAAUAAAGCUUUUCUUACAGAAAACC; result = 0.801
Sequence = GAGAGCCUCUUCUGGUGGAUGCUUUGCUCCCUCUGAGCUGCCCAUGCUGGUCUGGCAAACACACCUUUCUGCUUUGCCUUCACAAAAGUAAUGUGUUCCCUUUCCCACCC; result = 0.489
Sequence = AAUAACCAUUUUUAUAAGCAGUUGCUCCUCUUUGCAUGGUUCUAUUCUCUAAAAGUGUUGAAUGAUACAGCCAUUGCACUGAAGUUUGAGCUGUGUGCGUGUGAAUUUAU; result = 2.38
Sequence = UCCCCAUUUACAUUUUCCCCACUCUGUCUGCCUGCAUCUCCUCUGUUCCGGGUAGGCCUUGAUAUCACCUCUGGGACUGUGCCUUGCUCACCGAAACCCGCGCCCAGGAG; result = 2.81
Sequence = AAGGAGAAAUUACCAGUUACGGUUUAUUAAAUCUCUUUUAAAAUGCAGUCAAGGAAAACUAGCCUUGAAUUUUUUUUAGAUAAAAUAAGAUGGUGAUAUGAAACAAAAAG; result = 0.841
Sequence = UGGACCACCAAGGGGUUGUUGAAAACUAAUUGUAUUAAAUGUCUUUUGAUAAGCCUUCUGCUCACAUUUUUGUGAAUGUCUGAAGUAUAUAGUUUGUGUAUAUUGACAGA; result = 0.389

Series 6
Target: CCNA1, cyclin fold, Cln2 fusion (human)
Technique: yeast growth competition, sequencing
Sample: yeast
Notes: weak parent motif
Reference: not given
Direction: higher = stronger binding
Measurement: normalised enrichment score
Starting sequence: CDKN1B docking peptide (human); PSACRNLFGPVDH
Substitution = L7Q; result = 0.176
Substitution = H13M; result = 0.214
Substitution = D12K; result = 0.367
Substitution = G9Y; result = 0.453
Substitution = H13F; result = 0.446
Substitution = C4G; result = 0.000299
Substitution = G9H; result = 0.327
Substitution = N6C; result = 0.315
Substitution = F8G; result = 0.155
Substitution = H13I; result = 0.395
Substitution = N6E; result = 0.455
Substitution = P10I; result = 0.164
Substitution = D12N; result = 0.372
Substitution = A3K; result = 0.171
Substitution = V11Q; result = 0.23
Substitution = L7T; result = 0.102
Substitution = R5I; result = 0.0457
Substitution = P1A; result = 0.52
Substitution = S2T; result = 0.457
Substitution = L7C; result = -0.104
Substitution = A3H; result = 0.501
Substitution = N6H; result = 0.337
Substitution = C4H; result = 0.277
Substitution = S2D; result = 0.225
Substitution = S2G; result = 0.392

A few entries again (series 6):
Substitution = C4H; result = 0.277
Substitution = A3H; result = 0.501
Substitution = P10I; result = 0.164
Substitution = H13F; result = 0.446
Substitution = F8G; result = 0.155
Substitution = H13I; result = 0.395
Substitution = N6H; result = 0.337
Substitution = L7T; result = 0.102
Substitution = S2T; result = 0.457
Substitution = L7Q; result = 0.176
Substitution = V11Q; result = 0.23
Substitution = H13M; result = 0.214
Substitution = G9H; result = 0.327
Substitution = L7C; result = -0.104
Substitution = G9Y; result = 0.453
Substitution = S2D; result = 0.225
Substitution = D12K; result = 0.367
